Experimental data collected from several papers.
Compare with care: the assays were run in different laboratories. ± marks the error that the study gave.

For `COC(=O)C[C@](O)(CCCC(C)(C)OC(C)=O)C(=O)O[C@@H]1C(OC)=C[C@]23CCCN2CCc2cc4c(cc2[C@H]13)OCO4`, the tissue concentration was 879 ng/mL (CD1 mouse, stomach; oral, 1 mg/kg, 0.5 h).
`CCCC[C@H]1C(=O)N(C)[C@@H](CCCC)C(=O)N[C@@H](CCCNC(=O)CN2CCN(CC(=O)O)CCN(CC(=O)O)CCN(CC(=O)O)CC2)C(=O)N[C@H](C(=O)NCC(N)=O)CSCC(=O)N[C@@H](Cc2ccc(O)cc2)C(=O)N(C)[C@@H](C)C(=O)N[C@@H](CC(N)=O)C(=O)N2CCC[C@H]2C(=O)N[C@@H](Cc2c[nH]cn2)C(=O)N[C@@H](CC(C)C)C(=O)N(C)CC(=O)N[C@@H](Cc2c[nH]c3ccccc23)C(=O)N[C@@H](CO)C(=O)N[C@@H](Cc2c[nH]c3ccccc23)C(=O)N1C` [gallium-68 labelled] has a tumour uptake of 20.1 ± 2.6 %ID/g (biodistribution; NOD/SCID mice, CHO-hPD-L1 xenograft, CHO-hPD-L1 tumour; 60 min post injection).
For `COc1cc(NC(=O)C(=O)c2c(C)n(Cc3ccc(Cl)cc3)c3ccc(C)cc23)ccn1`, the half-life was 21.5 h (cynomolgus monkey, plasma; intravenous, 1 mg/kg).
`C[C@H]1N=C(c2ccccc2F)c2cc(Br)ccc2-n2cnc(C(=O)OC3O[C@H](C(=O)O)[C@@H](O)[C@H](O)[C@H]3O)c21` (stereo partly drawn) has a cumulative excretion of 2.8 ± 1.2% (LC-MS/MS; Swiss Webster mouse, female, urine; intraperitoneal, 750 µg parent drug, 0 to 24 h).
The tissue uptake of `CCNc1cc2[o+]c3cc(NCC)c(C)cc3c(-c3ccccc3C(=O)OCCOCC[18F])c2cc1C` is reported as 1.32 ± 0.06 %ID/g (rat, heart; 30 min).
Under “critical micelle concentration”, `CCCCCCCCCCCCC(=O)O.O=C1CCCC2C3CCCN4CCCC(CN12)C34` (stereo not drawn) is recorded as 0.00251 mol/kg (water; concentration not given, 308.15 K).
The tracer uptake of `[11CH3]n1c(=O)n(CCCO)c(=O)c2c1nc(Oc1cccc(OC(F)(F)F)c1)n2Cc1ccc(Cl)cc1` is reported as 1.13 ± 0.05 %ID/g (ex vivo biodistribution; Sprague Dawley rat, lung; 30 min post injection).
`CC(C)[C@H](NC(=O)CNC(=O)[C@H](CCC(N)=O)NC(=O)[C@H](C)N)C(=O)O` — result for “subjects with adverse events”: 0% (Possibly drug-related; human; 30 mg/kg, 3 days, thrice daily dosing).
The NOAEL of `Cc1ncc2c(n1)CN(C(=O)Nc1nc(-c3cccs3)ccc1N)C2` is reported as 45 mg/kg (general toxicity; male Sprague-Dawley rat; oral, multiple doses, once daily).
For `COc1cc(-c2cncc(-c3ccc(N4CCNCC4)cc3)c2C)cc(OC)c1O[11CH3]`, the peak SUV was 0.6 (dynamic PET; Sprague-Dawley rats male, whole brain; intravenous, 16 to 23 MBq).
For `C[C@@H]1CC[C@H]2[C@@H](C)CO[C@@H]3O[C@@]4(C)CC[C@@H]1[C@]32OO4`, the C0 was 4370 ng/mL (male Sprague-Dawley rat, plasma; intravenous, 5 mg/kg).
For `COc1cc2ncnc(Oc3cccc(N[11C](=O)Nc4cc(C(C)(C)C(F)(F)F)on4)c3)c2cc1OC`, “intact compound in plasma” read 87.8% (radio-HPLC; female Balb/c nude mice, plasma; intravenous, 30 min; baseline: radioactivity).
`CCCCCCCC(=O)SCC/C=C/[C@@H]1CC(=O)NCc2nc(cs2)C2=N[C@@](C)(CS2)C(=O)N[C@@H](C(C)C)C(=O)N1` has an elimination half-life of 2.32 h (female NIH Swiss mice; intravenous bolus, 5 mg/kg, two-compartment model).
`CC(C)[C@H](NC(=O)[C@H](CC(N)=O)NC(=O)[C@@H](NC(=O)[C@@H]1CCCN1C(=O)[C@@H](NC(=O)[C@@H](N)Cc1ccccc1)C(C)C)[C@@H](C)O)C(=O)NCC(=O)N1CCC[C@H]1C(=O)N[C@@H](Cc1ccccc1)C(=O)N[C@@H](C)C(=O)N[C@@H](Cc1ccccc1)C(N)=O` gave a peptide concentration of 13.8 µg/mL (25 % human serum; 50 µg/mL, 30 min, 37 °C).
`[2H]C([2H])([2H])C([2H])([2H])C([2H])([2H])OC(C(=O)OC1CCNCC1)(c1ccccc1)c1ccccc1`: “adverse drug reactions” 0% (refers to: boredom; healthy Japanese male; oral, 10 mg, 16 days, multiple ascending dose).
For `CC(C)C[C@@H](N)C(=O)NCC(=O)N[C@H](C)C(=O)N[C@H](CO)C(=O)N[C@H](Cc1c[nH]c2ccccc12)C(=O)N[C@H](Cc1c[nH]cn1)C(=O)N[C@H](CCCNC(=N)N)C(=O)N1CCC[C@@H]1C(=O)N[C@H](CC(=O)O)C(=O)N[C@H](CCCCN)C(=O)N[C@H](CS)C(=O)N[C@H](CS)C(=O)N[C@H](CC(C)C)C(=O)NCC(=O)N[C@H](Cc1ccc(O)cc1)C(=O)N[C@H](CCC(N)=O)C(=O)N[C@H](CCCCN)C(=O)N[C@H](CCCNC(=N)N)C(=O)N1CCC[C@@H]1C(=O)N[C@H](CC(C)C)C(=O)N1CCC[C@@H]1C(N)=O`, the accuracy was 99.8% (LC-MS/MS; rat plasma extract; 5000 ng/mL, 4 h, 8 °C, autosampler storage; baseline: nominal).
`CC(C)C[C@@H](NC(=O)[C@@H](CCCCN)NC(=O)CNC(=O)CNC(=O)[C@@H]1CSSC[C@H](N)C(=O)NCC(=O)N[C@@H](CCCNC(=N)N)C(=O)N[C@@H](CCCNC(=N)N)C(=O)N[C@@H](C)C(=O)NCC(=O)NCC(=O)N[C@@H](CO)C(=O)N1)C(=O)N[C@H](C)C(=O)N[C@H](CCCCN)C(=O)N[C@H](CC(C)C)C(=O)N[C@H](C)C(=O)N[C@H](CCCCN)C(=O)N[C@H](CCCCN)C(=O)N[C@H](CC(C)C)C(=O)N[C@H](C)C(=O)N[C@H](CCCCN)C(=O)N[C@H](CC(C)C)C(=O)N[C@H](C)C(=O)N[C@H](CCCCN)C(=O)O` gave a half-life of 0.89 h (cynomolgus monkey, plasma; intravenous, 3 mg/kg, infusion).
`CC[C@H](C)C(=O)N1CCC(NC(=O)Nc2ccc(OC(F)(F)F)c(F)c2)CC1` — result for “subjects with related TEAE”: 0% (healthy volunteers; oral, 2 mg single dose).
`COc1cc2c3c(c4cc(OC)c(OC)cc4c2cc1OC)C[N+]1([O-])CCCCC1C3` (stereo not drawn) gave a CC50 of > 50 µM (swine cells; 24 (unit not given)).
For `CSCC[C@@H]1NC(=O)[C@@H]2CSSC[C@H](NC(=O)[C@H](CO)NC(=O)[C@H](C)N)C(=O)N[C@@H](CCCNC(=N)N)C(=O)N[C@@H]([C@@H](C)O)C(=O)N3CCC[C@H]3C(=O)N[C@@H](CCCCN)C(=O)N[C@@H](CC(=O)O)C(=O)N[C@H]3CSSC[C@H](NC(=O)[C@H](CCCCN)NC(=O)[C@H](CCCNC(=N)N)NC(=O)[C@H](CC(N)=O)NC1=O)C(=O)N[C@@H](CCCCN)C(=O)N[C@H]1CSSC[C@H](NC(=O)[C@@H]4CCCN4C(=O)[C@H](CC(=O)O)NC(=O)[C@H](C)NC3=O)C(=O)N[C@@H](C)C(=O)N[C@@H](CCCCN)C(=O)N[C@@H](CCC(=O)O)C(=O)N[C@@H]([C@@H](C)O)C(=O)NCC(=O)N[C@@H](CSSC[C@@H](C(N)=O)NC(=O)[C@H](CCCNC(=N)N)NC(=O)[C@H](CC(N)=O)NC1=O)C(=O)N1CCC[C@H]1C(=O)N[C@@H](Cc1ccc(O)cc1)C(=O)NCC(=O)N[C@@H](CCCCN)C(=O)N2`, the VLDL was 13.2 mg/dL (DA rat, pristane-induced arthritis, serum; subcutaneous, 0.1 mg/kg single dose at onset, 21 days).
For `CC[C@H](C)[C@H](NC(=O)[C@H](C)NC(=O)CNC(=O)[C@H](Cc1c[nH]cn1)NC(=O)[C@@H](NC(=O)[C@H](Cc1ccccc1)NC(=O)[C@H](CCCCN)NC(=O)CNC(=O)[C@H](C)NC(=O)[C@H](CCCCN)NC(=O)[C@H](Cc1ccccc1)NC(=O)[C@@H](NC(=O)[C@H](Cc1c[nH]cn1)NC(=O)[C@H](CCCCN)NC(=O)[C@H](Cc1ccccc1)NC(=O)[C@@H](NC(=O)[C@H](CO)NC(=O)CNC(=O)[C@H](Cc1c[nH]c2ccccc12)NC(=O)CNC(=O)[C@H](C)N)[C@@H](C)CC)[C@@H](C)CC)[C@@H](C)CC)C(=O)N[C@@H](CCC(N)=O)C(=O)N[C@@H](C)C(=O)N[C@@H](Cc1c[nH]cn1)C(=O)N[C@@H](CC(N)=O)C(=O)N[C@@H](CC(=O)O)C(N)=O`, “acute toxic concentration” read 5 to 25 µg/mL (zebrafish embryos; 1 h, 4, 28, 52 hpf).

A few entries again:
The tissue uptake of `CCNc1cc2[o+]c3cc(NCC)c(C)cc3c(-c3ccccc3C(=O)OCCOCC[18F])c2cc1C` is reported as 1.32 ± 0.06 %ID/g (rat, heart; 30 min).
